Measurements from different studies.
Parts stem from different laboratories: compare values within a part only.

Set 1
Target: Prothrombin, mature alpha-thrombin (F2, Homo sapiens, UniProt P00734)
Technique: aptamer microarray, sandwich
Molecule type: DNA with 2'F-ANA
Matrix: in vitro
Tested at: 200 nM
Setting: whole 15-mer aptamer, many near background
With: Cy3 exosite-II aptamer, 400 nM
Reading: higher = stronger binding
Quantity: mean fluorescence intensity
Oligonucleotide: GGTTGGTGTGGTTGG
2'F-ANA at 1 4 5 7 8 9 13 14 15: 48.5 a.u.
2'F-ANA at 6 7 8 9 12 13 15: 681 a.u.
2'F-ANA at 2 5 6 7 8 9 11 14 15: 58.3 a.u.
2'F-ANA at 1 3 6 7 8 10 12 15: 120 a.u.
2'F-ANA at 6 7: 570 a.u.
2'F-ANA at 1 2 3 4 6 7 8 9 10 13 14: 50.6 a.u.
2'F-ANA at 1 5 6 7 12 14 15: 44.8 a.u.
2'F-ANA at 1 4 5 7 11 12 14: 44.3 a.u.
2'F-ANA at 5 6 10 11 14 15: 107 a.u.
2'F-ANA at 1 2 3 4 5 6 8 10 15: 239 a.u.
2'F-ANA at 3 6 7 8 12 14 15: 671 a.u.
2'F-ANA at 2 4 5 6 7 11 12: 114 a.u.
2'F-ANA at 2 3 7 8 12: 1360 a.u.
2'F-ANA at 1 5 6 7 9 12 14 15: 43.9 a.u.
2'F-ANA at 2 3 4 6 8 10 11 14: 161 a.u.
2'F-ANA at 1 3 4 5 7 10 13: 62.9 a.u.
2'F-ANA at 3 4 8 9 12 13 14: 344 a.u.
2'F-ANA at 3 4 5 8 10 13 15: 51.2 a.u.
2'F-ANA at 3 6 7 9 10 11 12 13 14: 315 a.u.
2'F-ANA at 1 2 4 5 6 7 10: 129 a.u.
2'F-ANA at 1 2 5 6 10 14 15: 48.8 a.u.
2'F-ANA at 3 4 5 6 8 10 11 12 14: 54.7 a.u.
2'F-ANA at 1 3 5 7 10 12 13: 47.9 a.u.
2'F-ANA at 2 3 6 10 13 15: 398 a.u.

Set 2
Target: Histone acetyltransferase KAT6A, both winged helices, GST fusion (KAT6A, Homo sapiens, UniProt Q92794, residues 1-181)
Technique: protein binding microarray
Molecule type: double-stranded DNA, one strand shown
Matrix: in vitro
Tested at: not given
Setting: 8-mer, flanks averaged, mean of 2 arrays, mostly near background
Relative to: not given
Reading: higher = stronger binding
Quantity: E-score
Target sequence (chain): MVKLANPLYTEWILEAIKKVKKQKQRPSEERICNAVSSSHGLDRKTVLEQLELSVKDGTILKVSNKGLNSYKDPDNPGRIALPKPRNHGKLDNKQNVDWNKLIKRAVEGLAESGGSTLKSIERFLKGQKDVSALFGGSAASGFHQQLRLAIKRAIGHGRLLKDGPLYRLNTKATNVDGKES
CTGCCAAG: -0.17
ACGCATGC: 0.191
TGATGGAA: -0.107
CCTGGGAA: 0.0175
ACATTGAG: -0.0227
CGACATAA: 0.0816
CTATTAAA: -0.181
AACGAAAG: -0.0118
CATACGGG: 0.252
GCAGTATA: -0.0572
AAACAGAT: 0.0506
GCATTGCC: 0.0351
GACTCGAC: -0.107
AGGTAGCG: 0.199
CAGTCATC: -0.0462
ACGTCACG: 0.118

Set 3
Target: RNA binding protein fox-1 homolog 2, RRM domain, GST-SBP tag (RBFOX2, Homo sapiens, UniProt O43251-10, residues 100-194)
Technique: RNA Bind-n-Seq
Molecule type: RNA
Matrix: in vitro
Tested at: 365 nM
Setting: natural RNA segment, single round, ends assumed
Relative to: no-protein control
Reading: higher = stronger binding
Quantity: RBNS enrichment (R)
All sequences stand within: GGGAGUUCUACAGUCCGACGAUC … UGGAAUUCUCGGGUGCCAA
Residues (chain): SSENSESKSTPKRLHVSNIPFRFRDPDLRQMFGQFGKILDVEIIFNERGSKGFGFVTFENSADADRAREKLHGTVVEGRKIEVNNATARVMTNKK
ACACCAGAGUCUGUACUUUUCUAUAACACAGCUCAGAUUAAGGUAGGGCAUAUGCCAAGGAGGUUCUCACCUCCCUAAAGAAGGGACUUGAAUUUUAGGGACUUUAAUUC: 0.205
AUGUUAAAAUAGCAUACUGUGUAUGUUUUAUCCAAAUUCAUUCAUGAAUCUUUCAUAUAUAUAUGCAUAUAUAUACAUAUAUUGUAGAGUGUGAAUAUUCUUAUUUAAAG: 0.49
ACACAAUGGUAAGUAUUUGUGUAUCUAAACAUAGCUAAACAUAGAAAAGGUAUGGUAAAAAUACAAUUUUAUAAUCUUAUGGGACUACCAUCAAUAUGUAGACCGUCAUU: 0.424
GGCCCUGCAAGCACAUCAUGACCCUUUCUGGCAGCCUCUUGGUGCUCUGGGUAGUGAGGGAUGACCAGUCUUGUCCUGAGAAAUGUUUCUCUUAGUCUUUAAGUUCAAAG: 0.252
CCAAAGUAGACUCCUUCGAACGUAUUUAAUUUGGCCUUUUCAGCUUUCUUCUUGCCCAGCUCUGUCGAAUUCAUGGGUGUGUGUGCACAUGUUGGUUUCACUCACCCAGA: 3.08
UUCCUAGCAUAUGUGAGCGCUCCAUUGGCUCAGCACAGACACUAAUAAAGACAUGAUUGGCCCCAGACUGGCUUUGCUUGUUUUGUUCCUCCAGGAUGUUUCCUUGAGAC: 0.677
AGAUCAUUGGUGACAUUCUUCAGUUAUCAUUAUACUUUGCCGAAUUCUAUCACAGCACAGCAGGUCGAGAGUUAACACCUGGAUGACAUGGUGGUGGAUAUUUGGGUCUG: 0.419
AUCAUCAGAACCCUAAGAGUAGAUGGUUGCCCUGCAUCUUGGGCUCCAUCGGCCGAAACUUUCCCAAGCCAGGGUGUGCGGAGCUUCCCUGUACUGCAGCCAAGGUGACG: 0.679
CAGCUUGCAGUGUGUAUAGCAUAUAGAUGCCAAUAUUAGAAUUCUUUAAAUUAUAUUUAACAUUUUCAUGCUUCUUAAUUUAACUUCACAUGUUGGGAAGUAGAUUCAGA: 0.632
AGACCAGGUAAUGAGUGGCUGCAAGGAGUCAUAUAGCCUGGGUGUGGGUGAGGGUCUGCCUGCCUGUUUCUGUCUGGGUGUCUGAGUUCCAAAAAAUGUGUGUUGUUUGU: 1.88
CACAGAAGCACAAUUUUGCCCUUUGCGAGACAUUGUUGCCUCUAUCUAGUCCUACAAGUAGGGUUUUGCAUACUGUGUUUGCCCCUAGGGUUGUCAGUGCAUCAGAAAUA: 1.15
CAUUAAUUAAGAGGUUGAAAAGAAGUACAGUGUAAGAAAACCCAGCAUUUUAAUUAUUUGCAAAUUAAGGUGCCACAGACACAGACUUAGUGGUAUGUAAAUGUUGACUC: 0.687

Set 4
Target: Fragile X messenger ribonucleoprotein 1, C-terminal low-complexity region (Fmr1, Mus musculus, UniProt P35922)
Technique: RNA Bind-n-Seq
Molecule type: RNA
Matrix: in vitro
Tested at: 200 nM
Setting: whole 134-nt RNA, ends assumed
With: 150 mM LiCl
Relative to: input library
Reading: higher = stronger binding
Quantity: log2 enrichment
Library: 7-deaza-guanosine replaces G
All sequences stand within: GGGAGUUCUACAGUCCGACGAUC … UGGAAUUCUCGGGUGUCAAGG
GGAUCAAAGCAAGUUGGAGAAACAUCAGCACCUGGAGACACCUUAGAUGGCACACCUCGUACUCUCAAUACUGUCUUUGAUUUCCCACCA: 1.05
UAACUUUAGAGGAGGAUCUGAUGGAUAUGGCAGUGGACGUGGAUUUGGGGAUGGCUAUAAUGGCUAUGGAGGAGGACCUGGAGGUGGCAA: 0.712
GUCCUGUGCUACACAUCGUAUGUACCGAAUCGGGAAAAAGGGAAAAAAAGGGAAAGGGAAAGUAUUAUGUUACGCCGUUCGGAUCUGCAC: 0.0445
GUCCUGUGCUACACAUCGUAUGUACCGAAUCGGGGAAAGGGGUUUGGGGUUUUUGGGGAAAGUAUUAUGUUACGCCGUUCGGAUCUGCAC: -1.1
GUCCUGUGCUACACAUCGUAUGUACCGAAUCAAAUUUUUAAACCCCCCCAAAUUUAAAAAAGUAUUAUGUUACGCCGUUCGGAUCUGCAC: 0.53
AAGUCCUGUGCUACACAUCGUAUGUACCGAAUCGGGUGGGAAAAAAAGGGUUUGGGAAAGUAUUAUGUUACGCCGUUCGGAUCUGCACUU: -2.51
UGGGAGGUGGAUUUUGUUUAUUUUUUUAGCUCAUUUCCAGGGGUGGGAAUUUUUUUUUAAUAUGUGUCAUGAAGAAAGUUGUUUUUGAAA: -0.00087
CACUGACAACACGCACCCACACAGACACAGAGGGAAGGGGUUGGGAUGGGGACAGGGUGCACAGCAGGGCGGGGUAGGACCCCAGCCCCU: -0.227
CUCAAGUCCUGUGCUACACAUCGUAUGUACCGAAUCGUGUGUGUGUGUGUGUGUAAAGUAUUAUGUUACGCCGUUCGGAUCUGCACUUCC: -0.495
UAACUUUAGAGGAGGAUCUGAUGGAUAUGGCAGUGGACGUGGAUUUGGGGAUGGCUAUAAUGGGUAUGGAGGAGGACUUGGAGGUGGCAA: 0.97
CUGUGCUACACAUCGUAUGUACCGAAUCGGGGAAAAAAAGGGGUUUUUGGGGUUUUUGGGGAAAGUAUUAUGUUACGCCGUUCGGAUCUG: -1.63

Excerpt of the above (set 2):
AAACAGAT: 0.0506
AGGTAGCG: 0.199
ACATTGAG: -0.0227
GACTCGAC: -0.107
CTGCCAAG: -0.17
CTATTAAA: -0.181
AACGAAAG: -0.0118
